Values quoted from earlier work as cited in several papers.
± gives the spread as reported.
Slc6a2: Transporter (Slc6a2, Rattus norvegicus, UniProt Q63380)
CNR2: Cannabinoid receptor 2 (CNR2, Homo sapiens, UniProt P34972)
UniProt P34972, sequence (whole entry, looked up): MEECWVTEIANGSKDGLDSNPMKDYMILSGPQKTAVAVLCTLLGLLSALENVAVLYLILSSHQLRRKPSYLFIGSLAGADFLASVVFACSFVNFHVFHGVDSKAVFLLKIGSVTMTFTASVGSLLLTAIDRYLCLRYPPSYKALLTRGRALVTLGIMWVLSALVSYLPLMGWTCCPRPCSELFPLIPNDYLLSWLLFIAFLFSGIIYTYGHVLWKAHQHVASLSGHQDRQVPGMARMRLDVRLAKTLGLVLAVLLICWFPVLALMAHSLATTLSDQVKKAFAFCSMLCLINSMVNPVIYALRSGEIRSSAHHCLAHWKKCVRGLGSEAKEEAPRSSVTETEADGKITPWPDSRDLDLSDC
UniProt P18508, sequence (whole entry, looked up): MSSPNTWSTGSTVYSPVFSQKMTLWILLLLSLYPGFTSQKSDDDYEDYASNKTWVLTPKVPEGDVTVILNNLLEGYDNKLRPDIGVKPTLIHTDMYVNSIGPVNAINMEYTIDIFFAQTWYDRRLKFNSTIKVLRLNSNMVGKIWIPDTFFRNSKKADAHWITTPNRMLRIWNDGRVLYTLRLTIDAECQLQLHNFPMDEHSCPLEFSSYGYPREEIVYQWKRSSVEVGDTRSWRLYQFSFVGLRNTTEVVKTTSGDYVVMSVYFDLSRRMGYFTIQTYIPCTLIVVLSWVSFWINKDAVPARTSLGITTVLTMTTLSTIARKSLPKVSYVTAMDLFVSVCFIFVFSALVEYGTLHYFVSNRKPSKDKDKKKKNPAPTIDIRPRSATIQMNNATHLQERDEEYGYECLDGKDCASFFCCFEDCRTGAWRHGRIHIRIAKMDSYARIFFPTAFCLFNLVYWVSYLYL
UniProt P08684, sequence (whole entry, looked up): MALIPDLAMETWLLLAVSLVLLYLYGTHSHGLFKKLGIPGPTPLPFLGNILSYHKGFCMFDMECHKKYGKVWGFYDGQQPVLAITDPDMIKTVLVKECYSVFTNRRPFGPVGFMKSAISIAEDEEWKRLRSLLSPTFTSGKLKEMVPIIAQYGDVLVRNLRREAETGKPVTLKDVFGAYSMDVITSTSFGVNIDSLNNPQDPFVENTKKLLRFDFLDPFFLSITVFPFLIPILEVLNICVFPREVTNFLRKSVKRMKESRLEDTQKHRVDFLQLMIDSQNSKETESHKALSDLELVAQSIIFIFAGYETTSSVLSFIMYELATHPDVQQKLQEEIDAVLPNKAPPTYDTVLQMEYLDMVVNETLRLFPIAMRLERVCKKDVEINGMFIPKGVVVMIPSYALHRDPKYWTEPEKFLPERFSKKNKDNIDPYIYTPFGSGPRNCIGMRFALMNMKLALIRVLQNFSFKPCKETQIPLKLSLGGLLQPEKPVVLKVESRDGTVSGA
UniProt P63138, sequence (whole entry, looked up): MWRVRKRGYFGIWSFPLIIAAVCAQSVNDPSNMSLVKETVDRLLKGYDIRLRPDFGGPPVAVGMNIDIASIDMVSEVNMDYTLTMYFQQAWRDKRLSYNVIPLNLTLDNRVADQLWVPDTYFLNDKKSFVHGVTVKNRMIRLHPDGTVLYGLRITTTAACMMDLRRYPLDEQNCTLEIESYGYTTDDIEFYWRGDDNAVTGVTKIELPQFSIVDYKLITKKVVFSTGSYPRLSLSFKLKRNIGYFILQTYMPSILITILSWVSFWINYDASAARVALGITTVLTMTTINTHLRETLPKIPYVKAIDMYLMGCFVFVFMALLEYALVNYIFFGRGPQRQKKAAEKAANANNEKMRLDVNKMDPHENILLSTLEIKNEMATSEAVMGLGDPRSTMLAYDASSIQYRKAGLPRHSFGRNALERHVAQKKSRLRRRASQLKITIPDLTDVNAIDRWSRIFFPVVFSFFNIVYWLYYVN
UniProt P62813, sequence (whole entry, looked up): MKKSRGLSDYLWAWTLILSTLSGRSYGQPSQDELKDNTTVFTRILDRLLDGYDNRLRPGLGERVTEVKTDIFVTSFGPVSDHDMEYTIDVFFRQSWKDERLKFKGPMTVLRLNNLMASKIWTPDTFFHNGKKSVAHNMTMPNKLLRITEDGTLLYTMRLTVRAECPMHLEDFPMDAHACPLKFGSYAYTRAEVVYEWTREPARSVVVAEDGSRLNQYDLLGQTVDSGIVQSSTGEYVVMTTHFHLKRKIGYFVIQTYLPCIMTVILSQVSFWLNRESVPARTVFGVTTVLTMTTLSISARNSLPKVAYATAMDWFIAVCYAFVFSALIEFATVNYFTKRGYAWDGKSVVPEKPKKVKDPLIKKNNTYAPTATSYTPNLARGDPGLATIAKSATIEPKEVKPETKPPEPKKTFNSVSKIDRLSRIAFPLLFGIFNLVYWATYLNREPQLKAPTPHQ

SMILES | target | assay | test system | conditions | how to read | quantity | result
CN1C(=O)CN=C(c2ccccc2)c2cc(Cl)ccc21 | GABAA receptor alpha2 vs alpha1 | potentiation of GABA current, positive allosteric modulator |  | added: GABA at EC3 | relative to: alpha2 over alpha1 | selectivity ratio | 1.47
CCN(CC)CCN1C(=O)CN=C(c2ccccc2F)c2cc(Cl)ccc21 | GABA-A receptor; alpha-1/beta-2/gamma-2 (Rattus norvegicus, UniProt P18508+P62813+P63138) | GABA-evoked current, positive modulator |  | wild-type receptor, unit not given | relative to: GABA current alone | maximal potentiation | 2.6
CCCC(C(=O)c1ccc2c(c1)OCO2)N1CCCC1 (stereo not shown) | Slc6a2 | transporter-mediated release, substrate | rat brain synaptosomes |  |  | EC50 | inactive
N[C@]1(c2ccccc2Cl)CCC[C@H](O)C1=O | muscarinic receptors | binding, competitive binding screen |  | concentration not given |  | activity | inactive
CCCCCCC(C)(C)c1cc(O)c2c(c1)OC(C)(C)[C@@H]1CC=C(CO)C[C@@H]21 | CNR2 |  |  | concentration not given, F197V mutant | relative to: wild type | binding affinity change | no effect
C[C@]12CCC(=O)CC1=CC[C@@H]1[C@@H]2CC[C@]2(C)C(=O)CC[C@@H]12 | ketosteroid isomerase wild-type | substrate |  | pH 7.0, 3.3 % methanol |  | Km | 49.9 ± 1.3 µM
COC(=O)[C@H]1[C@@H](OC(=O)c2ccccc2)C[C@@H]2CC[C@H]1N2C | Slc6a2 | transporter-mediated release, substrate | rat brain synaptosomes |  |  | EC50 | inactive
CCCCCCC(C)(C)c1ccc([C@@H]2C[C@H](O)CC[C@H]2CCCO)c(O)c1 | CNR2 |  |  | concentration not given, F197V mutant | relative to: wild type | binding affinity change | no effect
C[C@]12CC[C@H]3[C@@H](CCC4=CC(=O)CC[C@@]43C)[C@@H]1CC[C@@H]2O | Cytochrome P450 3A4 (CYP3A4, Homo sapiens, UniProt P08684) | substrate |  |  |  | Km | 24 µM
CCOC(=O)C1(c2ccccc2)CCN(C)CC1 | carboxylesterase 1 (human liver) | substrate |  |  |  | Km | 1900 µM
